Experimental data of several laboratories.
Parts stem from different laboratories: compare values within a part only.

Series 1 — method: RNA Bind-n-Seq; molecule type: RNA; sample: in vitro; tested at: not given; reference: input RNA pool; reading: higher = stronger binding
Target: RING finger protein unkempt homolog, zinc fingers 1-6, GST-SBP tag (UNK, Homo sapiens, UniProt Q9C0B0, residues 30-357)
UniProt Q9C0B0, sequence (30-357, looked up): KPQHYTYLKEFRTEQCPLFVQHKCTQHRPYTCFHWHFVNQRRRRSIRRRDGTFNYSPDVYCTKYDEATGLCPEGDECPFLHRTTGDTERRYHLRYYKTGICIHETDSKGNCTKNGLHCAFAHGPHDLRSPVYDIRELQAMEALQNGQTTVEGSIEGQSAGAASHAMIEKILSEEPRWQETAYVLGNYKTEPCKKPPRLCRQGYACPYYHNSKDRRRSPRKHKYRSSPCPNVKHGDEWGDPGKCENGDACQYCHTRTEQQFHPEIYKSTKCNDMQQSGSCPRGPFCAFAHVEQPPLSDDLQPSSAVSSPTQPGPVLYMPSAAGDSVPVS
Notes: RNA with constant flanks, human and mouse sites, ends assumed
The bound/input enrichment of `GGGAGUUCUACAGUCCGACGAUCGAUCCUCCACGAUUACGUGAAUAAAAUGAUGGAACCAAAAAUCACUGUCACUUUACAACUUAGGUUUUACUCUUUUCUUUCUACAGACCAUAUUUUUAAAGAAAUGUUUAUACAAUAAUUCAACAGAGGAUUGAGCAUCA` is reported as 3.9 ratio.
With `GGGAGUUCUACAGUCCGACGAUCAGAGCUAUCCAGGGAGGAACAUCACAUCAUUUAGGGCAGAAUUUUUCCAAAAUGUUUGAAAUCGUUUUUGAAGAUCCAAAGAUACCAGGAGAGAAGCAAUUUGCCUAUCAAAACUCCUGGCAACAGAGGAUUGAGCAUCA` the bound/input enrichment was 0.204 ratio.
With `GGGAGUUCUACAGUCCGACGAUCCAGGUGACCCAAUGACAACAGAAGAUGAAAGGCAUUAAGAAAAGUCCUACGGAGGAAUCUCUGUACCUGGAGUACUCUCACCAAACAGAAGGCUGCAUCUUUCCUCUCCACACGUCUGUACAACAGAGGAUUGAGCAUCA` the bound/input enrichment was 0.104 ratio.
For `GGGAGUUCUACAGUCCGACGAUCAAGAACACACCAGUUAAAUCCUCAGAAGGGUCACAGCAAAGGAGUCCAUCAUAUACCAAUGAUUCAACAGCCACUUUCAUCAUUGAUGGCAUGCAUUGUAAAUCAUGUGUGUCAAAUAUUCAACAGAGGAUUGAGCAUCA`, the bound/input enrichment was 0.122 ratio.
`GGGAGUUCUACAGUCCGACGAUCUAGUUUAUUCAAUUACAGCUCAGUCUACGUUUAAUGAUUUACAAGACUUGAGAGAACAGAUUUUACGGGUUAAAGACACAGAAGAUGUUCCAAUGAUUUUGGUUGGCAAUAAAUGUGACUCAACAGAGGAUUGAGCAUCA` gave a bound/input enrichment of 6.45 ratio.
For `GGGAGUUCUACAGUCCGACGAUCCUCAAAGAGCUGCUCUCUUGGAAGGUUCUGAGCACGGAAGACUAUACAACAUGCUUUUCUAGCAAAAAUUUUGUCCAUGAAGCAGUGGACUAUGUUAUCGGUCACUUGAUCCAAGAGAAGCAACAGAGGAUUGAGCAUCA`, the bound/input enrichment was 0.215 ratio.
For `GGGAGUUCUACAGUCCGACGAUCGUGACAAUUCCAGAGAGCGCACAUAUAUUCACCAGCUUUUAUGCUAAAACAAAAUCGCUAUUAGUUAAUCCAGCACUCUUUUUAAACCCUGAAGACUAUAACCAUCUAAUGGGUUAUGACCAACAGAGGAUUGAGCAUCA`, the bound/input enrichment was 0.486 ratio.
With `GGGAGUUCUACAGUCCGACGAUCGCAGACUUGGUAAAACCCAGGGUACAGUUAGAUUUUUUGUUGUUGUUGUAUUAUUUAAAUUAUAGCCUUCCAAAAACUGUUUUUGAUCAUAAUUGCUGUAUCAUUUGUAAUUUUUUUUAACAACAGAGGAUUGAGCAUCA` the bound/input enrichment was 31.1 ratio.

Series 2 — method: RNA Bind-n-Seq; molecule type: RNA; sample: in vitro; tested at: 200 nM; notes: whole 134-nt RNA, ends assumed; with: 150 mM LiCl; reference: input library; reading: higher = stronger binding; all molecules: 7-deaza-guanosine replaces G
Target: Fragile X messenger ribonucleoprotein 1, C-terminal low-complexity region (Fmr1, Mus musculus, UniProt P35922)
`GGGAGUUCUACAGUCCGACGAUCAAGUCCUGUGCUACACAUCGUAUGUACCGAAUCGGGGUUUUGGUUUUGGGGUUUUGGAAAGUAUUAUGUUACGCCGUUCGGAUCUGCACUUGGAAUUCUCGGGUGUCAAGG` has a log2 enrichment of -1.56.
With `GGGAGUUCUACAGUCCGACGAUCGUCCUGUGCUACACAUCGUAUGUACCGAAUCGGGGUUUUGGGGUUUUGGGUUUUGGGGAAAGUAUUAUGUUACGCCGUUCGGAUCUGCACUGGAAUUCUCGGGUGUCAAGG` the log2 enrichment was -0.374.
The log2 enrichment of `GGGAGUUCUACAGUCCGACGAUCUGGGAGGUGGAUUUUGCUUAUUUUUUUAGCUCAUUUCCAGGGGUGGGAAUUUUUUUUUAAUAUGUGUCAUGAAUAAAGUUGUUUUUGAAAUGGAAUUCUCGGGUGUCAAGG` is reported as -0.449.
`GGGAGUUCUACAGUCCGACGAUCUCAAGUCCUGUGCUACACAUCGUAUGUACCGAAUCGGCCGGGGCCGGGGCCGGGAAAGUAUUAUGUUACGCCGUUCGGAUCUGCACUUCCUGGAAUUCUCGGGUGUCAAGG` has a log2 enrichment of -0.508.
The log2 enrichment of `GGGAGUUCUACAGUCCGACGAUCCUCAAGUCCUGUGCUACACAUCGUAUGUACCGAAUCGGGAAGGAAGGGGAAGGAAAGUAUUAUGUUACGCCGUUCGGAUCUGCACUUCCAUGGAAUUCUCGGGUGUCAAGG` is reported as -0.838.
`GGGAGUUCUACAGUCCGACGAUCAAGUCCUGUGCUACACAUCGUAUGUACCGAAUCGGGAAAAAGGGUUUGGGAAAGGGAAAGUAUUAUGUUACGCCGUUCGGAUCUGCACUUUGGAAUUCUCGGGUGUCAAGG` gave a log2 enrichment of -2.2.
With `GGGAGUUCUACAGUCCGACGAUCAAGUCCUGUGCUACACAUCGUAUGUACCGAAUCGGGGAGGGGUUUGGGGAAAGGGGAAAGUAUUAUGUUACGCCGUUCGGAUCUGCACUUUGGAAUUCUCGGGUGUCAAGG` the log2 enrichment was -0.562.
For `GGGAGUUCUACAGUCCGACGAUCAAGUCCUGUGCUACACAUCGUAUGUACCGAAUCGGUUUGGAAAAAGGAAAAAAAGGAAAGUAUUAUGUUACGCCGUUCGGAUCUGCACUUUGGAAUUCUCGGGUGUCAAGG`, the log2 enrichment was -1.58.

Series 3 — method: protein-binding microarray; molecule type: double-stranded DNA, one strand shown; sample: in vitro; tested at: not given; reading: higher = stronger binding
Target: Protein max, full length (MAX, Homo sapiens, UniProt P61244-2, residues 1-151)
Notes: k-mer, scored over probes, only values ≥0.25
With `AGACACAT` the E-score was 0.261.
For `ACGGCACG`, the E-score was 0.326.
For `AGGACACG`, the E-score was 0.257.
The E-score of `CAGCACGG` is reported as 0.302.
For `ATGTCATG`, the E-score was 0.314.
For `ACGTGTTG`, the E-score was 0.441.
The E-score of `AGAACGAG` is reported as 0.262.
`ATCATATG` gave an E-score of 0.31.
For `ACACACGC`, the E-score was 0.407.
The E-score of `ACACGCAG` is reported as 0.277.
`CACGCGGG` has an E-score of 0.461.
For `AACGTGAC`, the E-score was 0.425.
With `ATGCGTTC` the E-score was 0.356.
For `AGGTGTGC`, the E-score was 0.328.
For `ATGTGCGG`, the E-score was 0.371.
`ACGCGGAA` gave an E-score of 0.286.
`CCACATGA` gave an E-score of 0.453.
The E-score of `ACACGCCT` is reported as 0.357.
The E-score of `CATGGGGG` is reported as 0.39.
For `CGTGATAG`, the E-score was 0.328.
The E-score of `CCATATGC` is reported as 0.346.
For `ACCGCACG`, the E-score was 0.329.
For `AGCATGAC`, the E-score was 0.411.

Series 4 — method: RNA Bind-n-Seq; molecule type: RNA; sample: in vitro; tested at: 365 nM; reference: no-protein control; reading: higher = stronger binding
Target: RNA binding protein fox-1 homolog 2, RRM domain, GST-SBP tag (RBFOX2, Homo sapiens, UniProt O43251-10, residues 100-194)
Notes: natural RNA segment, single round, ends assumed
Residues (chain): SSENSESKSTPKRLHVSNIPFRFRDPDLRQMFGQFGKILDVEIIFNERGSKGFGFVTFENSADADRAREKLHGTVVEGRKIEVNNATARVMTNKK
For `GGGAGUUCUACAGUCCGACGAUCAGAUGCCACCUCCCUCUCUCUGAGGCAGGCCUGUGGAUGAAGGAGGAGGGUCAGGGCUGGCCUUCCUCUGUGCAUCACUCUGCUAGGUUGGGGGCCCCCGACCCACCAUAUGGAAUUCUCGGGUGCCAA`, “RBNS enrichment (R)” read 0.888.
`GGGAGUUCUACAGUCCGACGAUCUUGUUGACUUAAAUUUAAUUCAAGGAUUGAAAAAUUAACUGGAUAUCUUGAAAUAUACAGUAAUGAUUGUCCUUAGACUCUUGAACUUUACCAUCUUUCCUAUUCAUAUAUGGAAUUCUCGGGUGCCAA` — result for “RBNS enrichment (R)”: 0.389.
`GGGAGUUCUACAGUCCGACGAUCAAGGUGGUGGGCUAGUCCUGUGUCCUCCUCCACUUCCCAUGCCUCUAUGUUACCCAUCUGUGUCUCCUGUGCAGAAGGAGAGGAAGGGGCAUUAAGAGAUGAAGGGUGAUUGGAAUUCUCGGGUGCCAA`: “RBNS enrichment (R)” 0.758.
`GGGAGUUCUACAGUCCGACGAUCAACCAACCCCAGGCCCACCCAGAGCGAGCAAACGCUGAGACCUGAAAGGACAUGGAUGAGAAGAGGAGCCCGCUUCCUGUACAUAUAUUUAAGUGACAAACACGGUCAAAUGGAAUUCUCGGGUGCCAA` — result for “RBNS enrichment (R)”: 0.386.
`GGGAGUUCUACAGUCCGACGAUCGGGCCUCAAAGAUUCAAAGAUUAAAAACAAAAAGCUUUUGAUGGAAAAGAUGUGGGUGGAUAGUAUAUUUCUACAGGUGGGUCAGGUUUGGUAGCAGUUUGAUGUGCUGGUGGAAUUCUCGGGUGCCAA` — result for “RBNS enrichment (R)”: 0.967.
Under “RBNS enrichment (R)”, `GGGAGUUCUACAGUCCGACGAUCGAAGAAGAAAGAUUCAGUAACUUGAAGAGAAGAUGUGAAGUGUUUAUCUGUGAACUGCAGUGCUGUAUCAAAGCAGUCCAGUAACCUGCAGUACUGAGUAUGGUGCUUGCUGGAAUUCUCGGGUGCCAA` is recorded as 0.635.
For `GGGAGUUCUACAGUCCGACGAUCACCGAUGAUUAGCAUUUAUGAUGCAGAGACAGAACAACUUCGUAUAGGACCGUACUCCUGGACACCAUUUCCACAUGUGGAUUUCUGGUUGCACCAAGAUGACAAGCAAAUGGAAUUCUCGGGUGCCAA`, “RBNS enrichment (R)” read 0.241.
`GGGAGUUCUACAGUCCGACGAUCAAAAAGGAAAAAAAAAAGAAAAAGAUCCUGUUACAACCCUCAUCACCUCAAAAACAAGGUUAACAGAGGGGUCAAGUGAGUCUUUUUUUUUUUUUUUUUUUAAAGACAGAUGGAAUUCUCGGGUGCCAA`: “RBNS enrichment (R)” 0.537.

Some of these lines once more (series 3):
For `ACGGCACG`, the E-score was 0.326.
For `AGGACACG`, the E-score was 0.257.
The E-score of `CAGCACGG` is reported as 0.302.
For `ATGTCATG`, the E-score was 0.314.
For `ACGTGTTG`, the E-score was 0.441.
